Assay results gathered from unrelated publications.
Protocols differ between the studies behind these lines. ± gives the spread as reported.
Taar1: Trace amine-associated receptor 1 (Taar1, Mus musculus, UniProt Q923Y8)
GRM4: Metabotropic glutamate receptor 4 (GRM4, Homo sapiens, UniProt Q14833)
GLP1R: Glucagon-like peptide 1 receptor (GLP1R, Homo sapiens, UniProt P43220)

Sequences of proteins named here, by UniProt entry; tags and fusion partners are left off. Residues count along the entry.
UniProt Q923Y8, whole entry: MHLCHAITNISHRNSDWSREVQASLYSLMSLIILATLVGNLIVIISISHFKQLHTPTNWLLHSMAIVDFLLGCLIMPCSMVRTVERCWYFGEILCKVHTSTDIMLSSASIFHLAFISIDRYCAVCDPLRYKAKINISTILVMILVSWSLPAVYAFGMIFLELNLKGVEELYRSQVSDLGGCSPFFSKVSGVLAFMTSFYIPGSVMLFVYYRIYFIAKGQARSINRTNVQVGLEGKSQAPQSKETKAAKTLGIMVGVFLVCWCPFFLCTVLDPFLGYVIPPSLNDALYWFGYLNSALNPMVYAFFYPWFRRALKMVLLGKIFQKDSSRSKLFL
UniProt Q923Y8, whole entry Y287N: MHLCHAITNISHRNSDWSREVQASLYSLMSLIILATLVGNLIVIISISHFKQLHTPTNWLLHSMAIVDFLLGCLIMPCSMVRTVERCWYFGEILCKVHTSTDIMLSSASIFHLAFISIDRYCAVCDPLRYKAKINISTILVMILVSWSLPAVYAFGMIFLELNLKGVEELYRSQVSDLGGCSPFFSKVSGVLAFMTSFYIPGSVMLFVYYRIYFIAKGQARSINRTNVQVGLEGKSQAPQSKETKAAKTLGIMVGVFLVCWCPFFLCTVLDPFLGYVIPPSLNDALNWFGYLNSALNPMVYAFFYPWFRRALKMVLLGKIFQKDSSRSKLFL
UniProt Q923Y8, whole entry T268M/Y287N: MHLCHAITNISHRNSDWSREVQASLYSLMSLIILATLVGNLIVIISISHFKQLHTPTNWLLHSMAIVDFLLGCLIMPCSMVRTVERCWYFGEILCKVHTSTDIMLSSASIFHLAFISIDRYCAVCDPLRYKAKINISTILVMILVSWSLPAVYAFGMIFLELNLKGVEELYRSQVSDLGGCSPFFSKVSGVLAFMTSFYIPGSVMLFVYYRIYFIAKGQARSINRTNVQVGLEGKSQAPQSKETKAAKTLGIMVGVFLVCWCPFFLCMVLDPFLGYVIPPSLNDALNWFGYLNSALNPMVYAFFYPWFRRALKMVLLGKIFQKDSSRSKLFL
UniProt Q14833, 33-912 limits assumed: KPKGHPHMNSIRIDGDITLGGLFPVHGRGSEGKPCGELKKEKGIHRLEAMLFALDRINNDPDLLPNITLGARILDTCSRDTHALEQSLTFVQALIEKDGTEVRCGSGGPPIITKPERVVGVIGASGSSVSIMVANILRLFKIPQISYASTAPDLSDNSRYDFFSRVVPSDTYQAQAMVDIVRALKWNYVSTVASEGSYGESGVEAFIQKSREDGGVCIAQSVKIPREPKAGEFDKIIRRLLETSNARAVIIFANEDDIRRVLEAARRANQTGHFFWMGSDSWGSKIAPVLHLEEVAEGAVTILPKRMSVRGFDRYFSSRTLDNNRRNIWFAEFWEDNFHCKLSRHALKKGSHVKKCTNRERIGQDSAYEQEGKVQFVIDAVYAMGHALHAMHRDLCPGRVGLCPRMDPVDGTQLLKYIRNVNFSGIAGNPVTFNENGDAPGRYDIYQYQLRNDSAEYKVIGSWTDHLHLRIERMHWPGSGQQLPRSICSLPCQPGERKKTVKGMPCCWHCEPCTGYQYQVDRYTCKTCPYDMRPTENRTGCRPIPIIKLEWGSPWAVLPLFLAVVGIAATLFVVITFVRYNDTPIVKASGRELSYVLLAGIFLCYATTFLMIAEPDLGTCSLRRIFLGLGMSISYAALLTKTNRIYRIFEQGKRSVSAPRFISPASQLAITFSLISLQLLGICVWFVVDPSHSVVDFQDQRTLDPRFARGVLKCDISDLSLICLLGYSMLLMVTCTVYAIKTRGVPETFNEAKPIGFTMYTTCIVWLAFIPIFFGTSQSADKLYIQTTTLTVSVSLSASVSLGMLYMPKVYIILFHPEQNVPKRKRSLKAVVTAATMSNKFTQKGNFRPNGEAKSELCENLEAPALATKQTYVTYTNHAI
UniProt P43220, whole entry, looked up: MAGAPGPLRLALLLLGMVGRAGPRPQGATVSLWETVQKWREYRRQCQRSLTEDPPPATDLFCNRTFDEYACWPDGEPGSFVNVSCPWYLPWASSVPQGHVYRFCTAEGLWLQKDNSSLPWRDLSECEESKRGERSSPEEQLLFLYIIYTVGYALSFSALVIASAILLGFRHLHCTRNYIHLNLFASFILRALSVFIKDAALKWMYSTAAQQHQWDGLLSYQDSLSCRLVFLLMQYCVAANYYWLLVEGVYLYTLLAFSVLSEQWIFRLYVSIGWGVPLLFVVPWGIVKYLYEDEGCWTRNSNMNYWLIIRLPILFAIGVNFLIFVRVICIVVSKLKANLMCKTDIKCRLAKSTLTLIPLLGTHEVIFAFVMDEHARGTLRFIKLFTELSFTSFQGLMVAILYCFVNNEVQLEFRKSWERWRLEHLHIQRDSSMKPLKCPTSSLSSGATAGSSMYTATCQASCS
UniProt Q01959, whole entry: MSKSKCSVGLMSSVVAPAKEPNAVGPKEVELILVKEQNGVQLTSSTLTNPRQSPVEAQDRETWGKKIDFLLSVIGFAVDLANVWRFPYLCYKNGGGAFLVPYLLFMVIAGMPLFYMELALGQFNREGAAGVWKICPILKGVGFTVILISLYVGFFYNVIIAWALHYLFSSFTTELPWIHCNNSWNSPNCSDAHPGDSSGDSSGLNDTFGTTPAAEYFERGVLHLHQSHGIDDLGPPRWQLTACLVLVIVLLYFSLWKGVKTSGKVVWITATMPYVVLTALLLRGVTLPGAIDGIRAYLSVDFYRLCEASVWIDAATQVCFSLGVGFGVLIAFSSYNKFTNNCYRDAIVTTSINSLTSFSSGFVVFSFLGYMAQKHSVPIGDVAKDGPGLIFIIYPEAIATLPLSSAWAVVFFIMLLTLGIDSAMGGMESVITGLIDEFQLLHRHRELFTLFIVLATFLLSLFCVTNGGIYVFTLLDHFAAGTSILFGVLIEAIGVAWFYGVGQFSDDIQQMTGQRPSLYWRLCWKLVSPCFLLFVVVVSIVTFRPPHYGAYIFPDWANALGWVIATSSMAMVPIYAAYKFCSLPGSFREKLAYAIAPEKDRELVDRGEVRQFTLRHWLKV
UniProt Q5JUK3, whole entry: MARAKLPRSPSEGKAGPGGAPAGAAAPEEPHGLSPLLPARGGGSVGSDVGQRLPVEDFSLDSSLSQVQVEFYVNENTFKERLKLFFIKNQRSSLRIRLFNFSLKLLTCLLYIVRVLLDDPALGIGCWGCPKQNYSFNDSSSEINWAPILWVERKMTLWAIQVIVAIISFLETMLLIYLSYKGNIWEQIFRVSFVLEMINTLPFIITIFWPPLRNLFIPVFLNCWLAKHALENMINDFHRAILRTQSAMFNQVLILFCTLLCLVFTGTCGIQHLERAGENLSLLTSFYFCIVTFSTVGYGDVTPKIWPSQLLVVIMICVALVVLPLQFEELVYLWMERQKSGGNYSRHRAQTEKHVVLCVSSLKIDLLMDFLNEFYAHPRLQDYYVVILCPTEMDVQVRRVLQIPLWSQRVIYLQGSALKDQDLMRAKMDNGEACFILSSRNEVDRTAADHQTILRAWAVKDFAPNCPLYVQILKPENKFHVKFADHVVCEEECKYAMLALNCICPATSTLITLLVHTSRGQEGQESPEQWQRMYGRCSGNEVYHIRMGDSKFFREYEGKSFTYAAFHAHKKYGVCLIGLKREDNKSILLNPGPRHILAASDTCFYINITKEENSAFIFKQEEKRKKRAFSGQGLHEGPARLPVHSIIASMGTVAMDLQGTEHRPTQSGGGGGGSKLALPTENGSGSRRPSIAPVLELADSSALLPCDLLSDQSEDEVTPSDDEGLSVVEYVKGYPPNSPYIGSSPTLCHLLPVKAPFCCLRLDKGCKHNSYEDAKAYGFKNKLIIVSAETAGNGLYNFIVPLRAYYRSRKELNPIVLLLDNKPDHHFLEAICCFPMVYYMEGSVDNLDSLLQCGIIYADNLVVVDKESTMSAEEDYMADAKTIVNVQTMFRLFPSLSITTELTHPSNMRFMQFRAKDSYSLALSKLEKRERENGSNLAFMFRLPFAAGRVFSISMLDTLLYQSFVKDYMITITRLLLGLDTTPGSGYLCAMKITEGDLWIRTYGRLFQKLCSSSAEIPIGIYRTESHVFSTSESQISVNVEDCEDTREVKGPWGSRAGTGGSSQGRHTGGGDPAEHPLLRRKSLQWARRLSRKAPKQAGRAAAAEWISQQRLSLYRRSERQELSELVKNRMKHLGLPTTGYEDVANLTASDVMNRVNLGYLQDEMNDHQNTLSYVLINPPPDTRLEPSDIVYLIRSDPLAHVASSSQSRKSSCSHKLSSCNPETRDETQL
UniProt Q3TBT3, whole entry: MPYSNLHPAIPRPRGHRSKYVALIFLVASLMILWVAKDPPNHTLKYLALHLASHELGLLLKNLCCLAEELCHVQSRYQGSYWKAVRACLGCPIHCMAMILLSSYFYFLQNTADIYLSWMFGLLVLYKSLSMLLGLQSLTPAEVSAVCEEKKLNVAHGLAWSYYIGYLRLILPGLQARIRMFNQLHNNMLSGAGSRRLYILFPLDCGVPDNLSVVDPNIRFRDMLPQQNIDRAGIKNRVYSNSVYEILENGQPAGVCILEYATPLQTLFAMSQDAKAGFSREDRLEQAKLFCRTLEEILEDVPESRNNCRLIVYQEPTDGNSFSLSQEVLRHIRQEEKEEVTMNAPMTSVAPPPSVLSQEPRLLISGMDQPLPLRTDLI
UniProt P33033, whole entry: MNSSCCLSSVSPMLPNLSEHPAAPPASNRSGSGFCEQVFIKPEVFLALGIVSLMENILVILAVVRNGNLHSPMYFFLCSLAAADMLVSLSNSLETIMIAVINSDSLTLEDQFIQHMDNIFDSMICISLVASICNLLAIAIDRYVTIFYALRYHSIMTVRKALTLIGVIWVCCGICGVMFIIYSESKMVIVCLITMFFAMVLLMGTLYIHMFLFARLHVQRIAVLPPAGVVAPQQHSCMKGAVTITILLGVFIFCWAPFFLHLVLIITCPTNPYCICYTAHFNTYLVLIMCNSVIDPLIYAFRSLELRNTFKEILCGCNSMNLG
UniProt Q02750, whole entry: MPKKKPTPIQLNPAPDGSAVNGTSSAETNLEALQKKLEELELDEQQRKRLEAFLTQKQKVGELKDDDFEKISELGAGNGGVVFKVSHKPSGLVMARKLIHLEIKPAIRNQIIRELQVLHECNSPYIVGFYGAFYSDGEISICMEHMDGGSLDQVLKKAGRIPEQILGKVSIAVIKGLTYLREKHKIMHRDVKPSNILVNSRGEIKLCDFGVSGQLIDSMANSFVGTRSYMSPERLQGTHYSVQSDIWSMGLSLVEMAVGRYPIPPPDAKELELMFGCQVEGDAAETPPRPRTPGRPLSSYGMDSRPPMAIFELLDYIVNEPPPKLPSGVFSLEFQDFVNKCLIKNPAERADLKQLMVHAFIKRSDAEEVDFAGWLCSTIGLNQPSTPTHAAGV
UniProt P31421, 19-872 limits assumed: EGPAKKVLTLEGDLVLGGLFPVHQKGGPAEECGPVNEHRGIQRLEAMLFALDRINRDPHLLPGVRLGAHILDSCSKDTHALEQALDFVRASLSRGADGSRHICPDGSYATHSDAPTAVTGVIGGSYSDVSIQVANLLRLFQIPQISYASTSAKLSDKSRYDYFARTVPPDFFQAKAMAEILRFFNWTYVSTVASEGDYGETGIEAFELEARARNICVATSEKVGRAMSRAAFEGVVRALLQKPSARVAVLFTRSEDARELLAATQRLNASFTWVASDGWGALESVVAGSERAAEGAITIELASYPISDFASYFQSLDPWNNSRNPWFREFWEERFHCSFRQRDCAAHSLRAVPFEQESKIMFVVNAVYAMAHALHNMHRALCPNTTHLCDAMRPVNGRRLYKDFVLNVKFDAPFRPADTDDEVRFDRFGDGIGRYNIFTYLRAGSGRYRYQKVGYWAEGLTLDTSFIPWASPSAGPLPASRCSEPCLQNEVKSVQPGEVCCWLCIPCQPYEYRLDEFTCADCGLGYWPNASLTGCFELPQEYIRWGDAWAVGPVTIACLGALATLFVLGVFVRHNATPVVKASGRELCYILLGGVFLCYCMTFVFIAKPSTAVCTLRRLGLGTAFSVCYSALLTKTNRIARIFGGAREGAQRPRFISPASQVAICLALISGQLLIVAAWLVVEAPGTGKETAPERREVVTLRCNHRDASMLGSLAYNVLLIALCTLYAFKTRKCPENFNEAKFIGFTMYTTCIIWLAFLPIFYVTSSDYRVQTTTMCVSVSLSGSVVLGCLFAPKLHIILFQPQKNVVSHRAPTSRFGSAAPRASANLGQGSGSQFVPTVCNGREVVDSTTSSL
UniProt Q99685, whole entry: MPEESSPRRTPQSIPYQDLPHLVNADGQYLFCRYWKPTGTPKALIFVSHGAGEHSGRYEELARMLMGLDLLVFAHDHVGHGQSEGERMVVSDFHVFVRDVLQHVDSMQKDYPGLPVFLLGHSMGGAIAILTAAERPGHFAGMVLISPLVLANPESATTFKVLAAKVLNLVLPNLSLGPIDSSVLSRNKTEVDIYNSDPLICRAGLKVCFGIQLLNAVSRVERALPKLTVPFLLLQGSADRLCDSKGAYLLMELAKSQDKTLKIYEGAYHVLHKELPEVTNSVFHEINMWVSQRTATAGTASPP

With `NCC(c1ccc(O)cc1)c1ccc(Oc2ccc(O)cc2)c(I)c1` (centres unmarked) the EC50 was > 10000 nM (Taar1; cAMP production, agonist; HEK293).
For `CNc1nc(C#Cc2ccc(Cl)s2)nc2c1ncn2[C@H]1[C@H](O)[C@H](O)[C@]2(C(=O)OC(C)C)C[C@H]12`, the EC50 was 470 nM (Sodium-dependent dopamine transporter (SLC6A3, Homo sapiens, UniProt Q01959)).
With `COc1cccc2c1ncn2CC1CCN(S(=O)(=O)c2cccc(C(F)(F)F)c2)CC1` the EC50 was 1300 nM (Potassium channel subfamily T member 1 (KCNT1, Homo sapiens, UniProt Q5JUK3); thallium flux, activator; HEK293 expressing KCNT1).
`CCn1nc(C)cc1C(=O)Nc1nc2cc(C(N)=O)cc(OC)c2n1C/C=C/Cn1c(NC(=O)c2cc(C)nn2CC)nc2cc(C(N)=O)cc(OCCOCCNC(=O)CCCCCN3C(=O)C=CC3=O)c21` gave an EC50 of 949 nM (Stimulator of interferon genes protein (Sting1, Mus musculus, UniProt Q3TBT3); IFN-β secretion, agonist, ELISA; mouse BMDCs; carrier-free cysteine-blocked click).
The EC50 of `CCCn1c(NCc2ccccc2O)nc2ccccc21` is reported as 700 ± 45 nM (Retinaldehyde dehydrogenase 3 (ALDH1A3, Homo sapiens, UniProt P47895); enzyme activity, inhibitor, NADH absorbance 340 nm; pH 7.5, 25 °C, 200 µM NAD+, with: 100 µM propionaldehyde).
`NCC(c1ccccc1)c1ccc(O)cc1` (centres unmarked) gave an EC50 of ≥ 10000 nM (Taar1; cAMP production, agonist).
`NCCCCNC(=O)[C@H](Cc1ccc(Cl)cc1)NC(=O)N1CCc2ccccc2C1` gave an EC50 of > 100000 nM (Melanocortin receptor 3 (Mus musculus, UniProt P33033); reporter gene, agonist, β-galactosidase reporter; HEK293 stably expressing Melanocortin receptor 3).
`CCc1ccc(NS(=O)(=O)c2cn(Cc3ccccn3)c3ncccc23)cc1` gave an EC50 of 550 nM (Cystic fibrosis transmembrane conductance regulator, W1282X (CFTR, Homo sapiens, UniProt P13569); chloride current, co-potentiator, short-circuit current; FRT expressing CFTR; with: 20 µM forskolin, 5 µM ivacaftor).
With `N#Cc1ccc(-c2c(-c3ccncc3)nnn2CC(=O)Nc2ccc(-c3ccccc3)cn2)cc1` the EC50 was 8 nM (Protein-serine O-palmitoleoyltransferase porcupine (Mus musculus, UniProt Q9JJJ7); Wnt signalling reporter, inhibitor; L-Wnt-STF).
With `COc1ccc(NC(=O)CN2CCCN(S(=O)(=O)c3ccco3)CC2)c(OC)c1` the EC50 was 3300 ± 300 nM (GRM4; calcium mobilization, positive allosteric modulator; CHO cells with Gqi5; with: glutamate EC20).
For `Cc1c(=O)n(C)c(Nc2ccc(I)cc2F)c2c(=O)n(C3CC3)c(=O)n(-c3cccc(NC(=O)CCOCCOCCNC(=O)CCC4=[N+]5C(=Cc6ccc(-c7ccc[nH]7)n6[B-]5(F)F)C=C4)c3)c12`, the EC50 was 35.2 ± 3.5 nM (Dual specificity mitogen-activated protein kinase kinase 1, with KSR2 (MAP2K1, Homo sapiens, UniProt Q02750); binding, NanoBRET; HEK-293T; MEK1-NanoLuc with KSR2).
`Cc1[nH]c2cc(Cl)cc(Cl)c2c1CCn1cc(CNC(N)=O)nn1` gave an EC50 of 760 nM (GLP1R; cAMP accumulation, positive allosteric modulator, HTRF; CHO-K1 expressing GLP1R; crude reaction product, with: GLP-1(9-36) at EC20).
The EC50 of `Cc1nc(-c2ccc(OCC(C)C)c(C#N)c2)sc1C(=O)N(C)C` is reported as 770 nM (Metabotropic glutamate receptor 2 (Grm2, Rattus norvegicus, UniProt P31421); thallium flux, positive allosteric modulator; HEK293 GIRK; with: glutamate EC20).
For `CC(C)(Cn1cc(CCC(=O)Nc2ccccc2)nn1)c1c[nH]c2ccccc12`, the EC50 was 970 ± 190 nM (GLP1R; cAMP accumulation, positive allosteric modulator, HTRF; CHO-K1 expressing GLP1R; purified compound, with: GLP-1(9-36) at EC20).
The EC50 of `NCC(c1ccc(O)cc1)c1ccc(Oc2ccccc2)cc1` (centres unmarked) is reported as 138 ± 24 nM (Trace amine-associated receptor 1 (Taar1, Mus musculus, UniProt Q923Y8, T268M/Y287N); cAMP production, agonist; double mutant).
With `CC1=CC(C)=[N+]2C1=C(CCCC(=O)NCc1cn(CCOc3ccc(C(c4ccc(Cl)cc4)N4CCN(C(=O)OC(C(F)(F)F)C(F)(F)F)CC4)cc3)nn1)c1c(C)cc(C)n1[B-]2(F)F` (centres unmarked) the EC50 was ~10 nM (Monoglyceride lipase (MGLL, Homo sapiens, UniProt Q99685); target engagement, gel-based ABPP; U-87 MG; 1 h, 37 °C).
With `CC(C)(Cn1cc(-c2ccc(N)nc2)nn1)c1c[nH]c2ccccc12` the EC50 was 459 nM (GLP1R; cAMP accumulation, positive allosteric modulator, HTRF; CHO-K1 expressing GLP1R; crude reaction product, with: GLP-1(9-36) at EC20).
With `COc1ccc(NC(=O)CN2CCCN(S(=O)(=O)c3sc(C)nc3C)CC2)c(OC)c1` the EC50 was > 10000 nM (GRM4; calcium mobilization, positive allosteric modulator; CHO cells with Gqi5; with: glutamate EC20).
With `NCC(c1ccccc1)c1cccc(Oc2ccccc2)c1` (centres unmarked) the EC50 was 102 ± 21 nM (Trace amine-associated receptor 1 (Taar1, Mus musculus, UniProt Q923Y8, Y287N); cAMP, agonist; mouse receptor mutant).
`Nc1nc(NCCc2ccc(Cl)cc2)nn1S(=O)(=O)c1cccc(Cl)c1` gave an EC50 of > 20000 nM (Lysophospholipase-like protein 1 (Mus musculus, UniProt Q3UFF7); enzyme activity, activator, gel-based ABPP, FP-rhodamine; purified protein).

Excerpt of the above:
The EC50 of `CCCn1c(NCc2ccccc2O)nc2ccccc21` is reported as 700 ± 45 nM (Retinaldehyde dehydrogenase 3 (ALDH1A3, Homo sapiens, UniProt P47895); enzyme activity, inhibitor, NADH absorbance 340 nm; pH 7.5, 25 °C, 200 µM NAD+, with: 100 µM propionaldehyde).
